Results gathered from unrelated publications.
Compare with care: the assays were run in different laboratories. Numbers after ± are the reported error.
F2: Prothrombin (F2, Homo sapiens, UniProt P00734)
prp N63Q: Ribosomal processing cysteine protease Prp (prp, Staphylococcus aureus, UniProt Q2FXS9, N63Q)
Sequence of UniProt P48730 (whole entry, looked up): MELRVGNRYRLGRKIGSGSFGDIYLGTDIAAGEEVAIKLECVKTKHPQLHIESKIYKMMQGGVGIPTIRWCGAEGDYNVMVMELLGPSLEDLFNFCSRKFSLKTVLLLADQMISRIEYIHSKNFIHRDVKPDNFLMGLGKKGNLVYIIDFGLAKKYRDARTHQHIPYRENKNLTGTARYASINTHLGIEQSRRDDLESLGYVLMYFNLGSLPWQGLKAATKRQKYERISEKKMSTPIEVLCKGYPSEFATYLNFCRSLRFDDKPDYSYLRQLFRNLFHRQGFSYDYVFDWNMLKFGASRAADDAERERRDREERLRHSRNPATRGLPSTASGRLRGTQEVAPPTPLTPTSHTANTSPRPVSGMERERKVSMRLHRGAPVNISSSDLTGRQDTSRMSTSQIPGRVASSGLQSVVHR
Sequence of UniProt Q13557 (whole entry, looked up): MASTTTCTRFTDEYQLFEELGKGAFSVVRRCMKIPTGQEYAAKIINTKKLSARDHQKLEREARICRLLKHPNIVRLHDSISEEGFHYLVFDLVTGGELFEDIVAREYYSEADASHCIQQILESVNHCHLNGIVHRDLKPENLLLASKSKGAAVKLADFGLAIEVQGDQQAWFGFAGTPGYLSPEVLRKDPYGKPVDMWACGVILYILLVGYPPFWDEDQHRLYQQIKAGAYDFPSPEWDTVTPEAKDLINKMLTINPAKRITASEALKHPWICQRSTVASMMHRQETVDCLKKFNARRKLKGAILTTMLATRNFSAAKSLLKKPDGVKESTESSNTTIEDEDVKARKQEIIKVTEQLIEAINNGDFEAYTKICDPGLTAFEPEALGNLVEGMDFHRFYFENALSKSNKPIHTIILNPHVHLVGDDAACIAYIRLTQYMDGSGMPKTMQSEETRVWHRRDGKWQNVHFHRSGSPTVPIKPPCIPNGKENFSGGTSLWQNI
Sequence of UniProt O60741 (whole entry, looked up): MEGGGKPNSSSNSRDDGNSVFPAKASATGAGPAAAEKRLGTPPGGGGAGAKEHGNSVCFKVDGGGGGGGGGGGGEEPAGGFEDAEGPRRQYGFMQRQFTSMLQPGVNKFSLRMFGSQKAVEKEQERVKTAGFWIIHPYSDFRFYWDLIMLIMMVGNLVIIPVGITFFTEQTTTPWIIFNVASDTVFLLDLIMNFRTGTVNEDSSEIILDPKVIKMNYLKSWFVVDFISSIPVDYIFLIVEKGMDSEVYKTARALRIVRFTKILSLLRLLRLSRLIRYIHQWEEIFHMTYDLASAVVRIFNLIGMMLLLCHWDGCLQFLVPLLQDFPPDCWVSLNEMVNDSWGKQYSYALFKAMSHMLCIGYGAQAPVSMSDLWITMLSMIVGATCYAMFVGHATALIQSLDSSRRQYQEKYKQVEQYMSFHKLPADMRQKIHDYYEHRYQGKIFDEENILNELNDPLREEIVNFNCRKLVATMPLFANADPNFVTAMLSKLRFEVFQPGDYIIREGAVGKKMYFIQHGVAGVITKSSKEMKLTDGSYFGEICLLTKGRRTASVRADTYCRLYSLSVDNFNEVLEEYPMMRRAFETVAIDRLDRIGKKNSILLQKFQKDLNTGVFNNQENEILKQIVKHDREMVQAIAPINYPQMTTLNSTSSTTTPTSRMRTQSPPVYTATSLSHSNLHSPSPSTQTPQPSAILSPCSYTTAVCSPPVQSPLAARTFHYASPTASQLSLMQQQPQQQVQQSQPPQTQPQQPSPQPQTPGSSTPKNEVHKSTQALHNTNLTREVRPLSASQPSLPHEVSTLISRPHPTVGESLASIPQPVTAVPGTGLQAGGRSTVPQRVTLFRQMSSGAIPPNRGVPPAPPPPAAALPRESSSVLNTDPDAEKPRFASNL
Sequence of UniProt P18031 (whole entry, looked up): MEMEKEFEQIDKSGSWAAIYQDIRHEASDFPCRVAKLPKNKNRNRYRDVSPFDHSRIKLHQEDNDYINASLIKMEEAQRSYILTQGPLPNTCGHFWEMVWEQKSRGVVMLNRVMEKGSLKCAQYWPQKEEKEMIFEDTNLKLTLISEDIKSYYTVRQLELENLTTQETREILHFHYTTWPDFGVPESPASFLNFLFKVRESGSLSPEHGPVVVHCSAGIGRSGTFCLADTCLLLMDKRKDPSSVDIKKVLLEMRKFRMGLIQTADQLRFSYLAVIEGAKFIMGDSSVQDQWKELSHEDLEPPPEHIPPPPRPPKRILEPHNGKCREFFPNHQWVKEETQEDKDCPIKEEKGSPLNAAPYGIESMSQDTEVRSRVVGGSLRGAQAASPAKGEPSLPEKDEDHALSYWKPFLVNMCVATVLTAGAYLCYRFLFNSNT
Sequence of UniProt P05067 (whole entry, looked up): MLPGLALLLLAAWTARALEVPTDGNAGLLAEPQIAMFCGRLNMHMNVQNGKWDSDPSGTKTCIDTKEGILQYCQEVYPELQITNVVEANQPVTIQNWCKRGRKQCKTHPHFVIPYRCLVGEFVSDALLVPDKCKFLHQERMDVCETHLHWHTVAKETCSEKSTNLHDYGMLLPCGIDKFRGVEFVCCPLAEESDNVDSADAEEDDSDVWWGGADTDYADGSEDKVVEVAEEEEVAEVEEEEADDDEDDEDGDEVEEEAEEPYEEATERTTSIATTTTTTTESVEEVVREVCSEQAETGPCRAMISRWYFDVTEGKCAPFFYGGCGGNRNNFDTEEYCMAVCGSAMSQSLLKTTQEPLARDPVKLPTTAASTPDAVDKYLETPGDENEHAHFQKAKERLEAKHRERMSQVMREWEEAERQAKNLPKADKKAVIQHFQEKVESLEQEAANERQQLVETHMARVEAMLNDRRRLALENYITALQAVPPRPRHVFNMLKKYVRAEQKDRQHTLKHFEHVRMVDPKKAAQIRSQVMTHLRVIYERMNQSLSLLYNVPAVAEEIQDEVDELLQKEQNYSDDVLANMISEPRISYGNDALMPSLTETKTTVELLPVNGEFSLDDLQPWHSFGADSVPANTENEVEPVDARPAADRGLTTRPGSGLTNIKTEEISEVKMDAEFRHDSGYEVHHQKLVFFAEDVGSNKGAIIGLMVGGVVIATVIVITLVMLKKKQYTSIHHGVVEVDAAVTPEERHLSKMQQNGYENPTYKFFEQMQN
Sequence of UniProt Q92499 (whole entry, looked up): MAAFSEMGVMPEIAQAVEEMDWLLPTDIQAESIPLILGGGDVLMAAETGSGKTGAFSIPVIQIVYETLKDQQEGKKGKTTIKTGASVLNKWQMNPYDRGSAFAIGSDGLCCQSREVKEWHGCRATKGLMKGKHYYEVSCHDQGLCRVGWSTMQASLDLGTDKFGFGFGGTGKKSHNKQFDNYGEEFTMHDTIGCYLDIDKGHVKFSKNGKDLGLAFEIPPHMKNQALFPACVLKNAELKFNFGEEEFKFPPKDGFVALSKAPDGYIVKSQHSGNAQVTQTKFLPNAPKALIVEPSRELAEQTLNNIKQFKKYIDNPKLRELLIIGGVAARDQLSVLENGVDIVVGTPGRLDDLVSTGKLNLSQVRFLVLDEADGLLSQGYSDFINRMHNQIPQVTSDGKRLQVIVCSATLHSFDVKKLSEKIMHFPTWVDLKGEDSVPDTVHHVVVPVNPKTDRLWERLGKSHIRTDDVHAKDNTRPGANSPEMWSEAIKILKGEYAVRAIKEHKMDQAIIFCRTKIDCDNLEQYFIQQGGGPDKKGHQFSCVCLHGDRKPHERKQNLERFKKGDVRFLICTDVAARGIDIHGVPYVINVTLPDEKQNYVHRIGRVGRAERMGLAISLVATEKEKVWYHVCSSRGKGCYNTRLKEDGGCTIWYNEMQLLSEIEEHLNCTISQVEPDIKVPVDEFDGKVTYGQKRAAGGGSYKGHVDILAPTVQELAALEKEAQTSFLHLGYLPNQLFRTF
Sequence of UniProt Q9H2X6 (whole entry, looked up): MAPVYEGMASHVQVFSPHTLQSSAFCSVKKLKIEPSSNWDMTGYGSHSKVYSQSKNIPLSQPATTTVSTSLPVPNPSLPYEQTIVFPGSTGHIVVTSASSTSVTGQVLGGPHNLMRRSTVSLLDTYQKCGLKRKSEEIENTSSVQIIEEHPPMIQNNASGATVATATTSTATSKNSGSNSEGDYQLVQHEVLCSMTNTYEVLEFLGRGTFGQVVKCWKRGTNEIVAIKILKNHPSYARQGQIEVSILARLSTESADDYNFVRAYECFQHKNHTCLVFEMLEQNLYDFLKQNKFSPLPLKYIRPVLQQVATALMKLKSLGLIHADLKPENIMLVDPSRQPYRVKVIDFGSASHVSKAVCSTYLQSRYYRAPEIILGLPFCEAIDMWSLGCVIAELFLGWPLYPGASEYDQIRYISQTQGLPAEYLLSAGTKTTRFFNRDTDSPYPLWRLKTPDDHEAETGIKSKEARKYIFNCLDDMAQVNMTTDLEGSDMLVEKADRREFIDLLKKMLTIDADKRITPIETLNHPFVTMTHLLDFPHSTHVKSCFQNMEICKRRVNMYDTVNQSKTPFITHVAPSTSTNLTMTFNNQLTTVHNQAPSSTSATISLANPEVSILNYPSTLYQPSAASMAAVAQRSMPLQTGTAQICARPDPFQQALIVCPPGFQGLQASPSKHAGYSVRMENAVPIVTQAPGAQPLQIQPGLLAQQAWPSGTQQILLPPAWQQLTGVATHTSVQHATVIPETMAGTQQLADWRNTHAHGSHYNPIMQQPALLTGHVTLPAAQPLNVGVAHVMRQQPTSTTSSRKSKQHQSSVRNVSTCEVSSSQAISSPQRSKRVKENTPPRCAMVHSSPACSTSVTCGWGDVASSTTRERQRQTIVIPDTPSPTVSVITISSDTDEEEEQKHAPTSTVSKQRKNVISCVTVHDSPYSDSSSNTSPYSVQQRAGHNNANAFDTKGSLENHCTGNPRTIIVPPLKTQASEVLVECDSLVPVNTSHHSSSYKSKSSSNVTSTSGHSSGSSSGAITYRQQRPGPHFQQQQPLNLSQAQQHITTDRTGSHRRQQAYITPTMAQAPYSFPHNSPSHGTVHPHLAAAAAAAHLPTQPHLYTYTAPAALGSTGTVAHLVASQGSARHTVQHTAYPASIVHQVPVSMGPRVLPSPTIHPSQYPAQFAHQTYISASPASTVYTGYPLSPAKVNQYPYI

With `CC[C@H](C)[C@H](NC(=O)[C@@H](NC(=O)[C@H](N)Cc1ccccc1)C(C)C)C(=O)N[C@@H](C)C(N)=O` the inhibition was 100% (APP (Homo sapiens, UniProt P05067); amyloid-beta aggregation, thioflavin T fluorescence; 2.0 µM, 24 h, added: 2 µM amyloid-beta).
`COc1ccc(N2C(=O)N(c3c(C)cccc3Cl)Cc3cnc(Nc4ccc(C5CCN(C)CC5)cc4OC)nc32)nc1` gave an inhibition of 5% (NEK7 (Homo sapiens, UniProt Q8TDX7); kinase activity; 0.5 µM).
For `Clc1cccc(-c2c[nH]c3nccc(N4CCOCC4)c23)c1`, inhibition read “inhibited” (STK4 (Homo sapiens, UniProt Q13043); kinase activity, inhibitor, PhosphoSens kinetic; concentration not given, 2 h, added: ATP at Km).
With `Nc1ccc2c(c1)B(O)OC2` the inhibition was at most 10% (F2; enzyme activity; 50 µM, added: substrate 50 µM).
`CC(C)N1CCC[C@H]1CNC(=O)c1cn(C2CCCC2)c(=O)c2c1c1ccccc1n2C` gave an inhibition of -6% (kainate receptor, rat; radioligand binding; 10 µM).
The inhibition of `COc1cc(Nc2ncc(F)c(Nc3ccc4c(n3)NC(=O)C(C)(C)O4)n2)cc(OC)c1OC` is reported as 96% (IRAK3 (Homo sapiens, UniProt Q9Y616); KINOMEscan; 10 µM).
`C#CCCCCNC(=O)CI` — result for inhibition: “no inhibition” (Genome polyprotein, NIa protease (Tobacco etch virus, UniProt P04517); up to 50 µM).
`O=C(Nc1ccccc1)Nc1ccc2c(c1)B(O)OC2` has an inhibition of at most 10% (F2; enzyme activity; 50 µM, added: substrate 50 µM).
The inhibition of `C=C(C)[C@@H]1CC[C@@H](C)[C@@H]2CCC(C)=C[C@@H]21` is reported as about 50% (PTPN1 (Homo sapiens, UniProt P18031); enzyme activity, inhibitor; 115 µM, added: pNPP substrate).
`C[C@H](NC(=O)CCC(F)(F)F)C(=O)N[C@@H]1C(=O)N(CCO)c2ncccc2-c2ccccc21` has an inhibition of -21 ± 6% (prp N63Q; enzyme activity, inhibitor; 10 µM, prp 21.4 nM, added: FITC peptide substrate 0.5 µM).
For `CNCCCC12CCC(c3ccccc31)c1ccccc12`, the inhibition was 2.79% (Potassium/sodium hyperpolarization-activated cyclic nucleotide-gated channel 1 (Homo sapiens, UniProt O60741); ion current; 10 µM).
For `Cc1c(-c2ccnn2C)cc(C(=O)NCc2ccc(S(C)(=O)=O)cn2)c(=O)n1-c1cccc(C(F)(F)F)c1`, the inhibition was 34.5 ± 6.3% (prp N63Q; enzyme activity, inhibitor; 10 µM, prp 21.4 nM, added: FITC peptide substrate 0.5 µM).
`O=C(Nc1ccc2c(c1)B(O)OC2)OCc1ccccc1` has an inhibition of at most 10% (F2; enzyme activity; 50 µM, added: substrate 50 µM).
`CC(C)c1nc(CN(C)C(=O)N[C@H](C(=O)N[C@@H](Cc2ccccc2)C[C@H](O)[C@H](Cc2ccccc2)NC(=O)OCc2cncs2)C(C)C)cs1` gave an inhibition of -17.1 ± 19.9% (prp N63Q; enzyme activity, inhibitor; 10 µM, prp 21.4 nM, added: FITC peptide substrate 0.5 µM).
The inhibition of `O=C(Nc1cccnn1)N1CCC(=Cc2cccc(Oc3ccc(C(F)(F)F)cn3)c2)CC1` is reported as 6% (CAMK2D (Homo sapiens, UniProt Q13557); enzyme activity, inhibitor; 10 µM, added: autocamtide-2).
The inhibition of `C[C@H](C(=O)N[C@H]1COc2ccccc2[C@@H]1S(C)(=O)=O)c1ccc(F)cc1` is reported as -17% (phosphodiesterase 4, human; enzyme activity; 10 µM, Eurofins selectivity panel).
The inhibition of `Cn1c(=O)cc(N2CCC[C@@H](N)C2)n(Cc2ccccc2C#N)c1=O` is reported as 38.4 ± 25.5% (prp N63Q; enzyme activity, inhibitor; 10 µM, prp 21.4 nM, added: FITC peptide substrate 0.5 µM).
`COc1cccc(CO)c1` gave an inhibition of 8 ± 2% (ADORA2A (Homo sapiens, UniProt P29274); 30 µM).
`Cc1onc(-c2ccc(F)cc2)c1C(=O)Nc1ccc2c(c1)B(O)OC2` has an inhibition of at most 10% (F2; enzyme activity; 50 µM, added: substrate 50 µM).
`N#C[C@@H]1C[C@@H]2C[C@@H]2N1C(=O)[C@@H](N)C12CC3CC(CC(O)(C3)C1)C2` has an inhibition of 38.2 ± 7.3% (prp N63Q; enzyme activity, inhibitor; 10 µM, prp 21.4 nM, added: FITC peptide substrate 0.5 µM).
For `O=C(Nc1cnccc1Cl)N1CCN(Cc2ccc3c(c2)OC(F)(F)O3)CC1`, the inhibition was 11% (AMPA receptor, rat; binding; 10 µM, added: [3H]AMPA).
For `CN1CCN(c2cc(-c3ccncc3)c(-c3ccc4ccccc4c3)nn2)CC1`, the inhibition was 19.5% (TACR2 (Homo sapiens, UniProt P21452); antagonist, FLIPR; 10 µM).
The inhibition of `O=c1ccc2ccccc2o1` is reported as -11.4% (AVPR1A (Homo sapiens, UniProt P37288); agonist radioligand binding; 10 µM, SafetyScreen44).
`CN(C(=O)n1cnc(-c2ccc[n+]([O-])c2)c1)C1CCCCC1` has an inhibition of 0% (HIPK2 (Homo sapiens, UniProt Q9H2X6); kinase activity, inhibitor; 50 µM, added: myelin basic protein substrate).
`C[C@H](NC(=O)Cc1cc(F)cc(F)c1)C(=O)N[C@@H]1C(=O)N(C)c2ccccc2-c2ccccc21` gave an inhibition of -15.5 ± 6.6% (prp N63Q; enzyme activity; 10 µM, 21.4 nM enzyme dimer, added: 0.5 µM FITC-labelled peptide substrate).
The inhibition of `O=C(N1CCC2(CC1)C[C@@H](CN1CCCCS1(=O)=O)CCO2)C1(c2ccccc2)CCCC1` is reported as 0% (ATP-dependent RNA helicase DDX1 (Homo sapiens, UniProt Q92499); ATPase activity; 50 µM).
`O=C(Nc1ccc2c(c1)B(O)OC2)c1ccc(C(F)(F)F)cc1` has an inhibition of at most 10% (F2; enzyme activity; 50 µM, added: substrate 50 µM).
With `CC(C)C[C@H](NC(=O)[C@H](Cc1ccccc1)NC(=O)c1cnccn1)B(O)O` the inhibition was 4.1 ± 6.8% (prp N63Q; enzyme activity, inhibitor; 10 µM, prp 21.4 nM, added: FITC peptide substrate 0.5 µM).
For `O=c1cc(-c2ccccc2)oc2cc(O)c(O)c(O)c12`, inhibition read “no inhibition” (CES1 (Homo sapiens, UniProt P23141); oseltamivir hydrolysis; recombinant human enzyme; 10 µmol/L, 60 min, added: oseltamivir 10 µmol/L).
For `COCc1c(-c2cc3cc(C)cc(OC)c3s2)c2c(N)ncnn2c1CN1CCNC(=O)C1`, the inhibition was 10% (aldose reductase; enzyme activity; 10 µM).
With `CC(=O)NC[C@H]1[C@H](O)[C@H](O)[C@@H]2[C@H](O)C[C@@H](CO)N21` the inhibition was 19.2% (human placental β-N-acetylglucosaminidase; 0.000805 µM, run 2, added: p-nitrophenyl GlcNAc).
For `O=[N+]([O-])c1ccc(S(=O)(=O)N2CCN(c3ccnc4cc(Cl)ccc34)CC2)c([N+](=O)[O-])c1`, the inhibition was 6 ± 12.4% (prp N63Q; enzyme activity; 10 µM, 21.4 nM enzyme dimer, added: 0.5 µM FITC-labelled peptide substrate).
With `COc1cccc(COc2cccc(C(=O)Nc3ccc4c(c3)B(O)OC4)c2)c1` the inhibition was at most 10% (F2; enzyme activity; 50 µM, added: substrate 50 µM).
The inhibition of `CN(CCN1CCC(OC(=O)Nc2ccccc2-c2ccccc2)CC1)C(=O)c1ccc(CN2CCC(C(N)=O)CC2)cc1` is reported as -5% (GABA receptor non-selective; radioligand binding; 1 µM, added: [3H]GABA 10 nM).
`FC(F)(F)c1cccc(Nc2nc(NCCOc3ccccc3)nc3[nH]cnc23)c1` gave an inhibition of 9% (CSNK1D (Homo sapiens, UniProt P48730); enzyme activity, inhibitor, Thermo Fisher kinase screening; 5 µM).

Excerpt of the above:
`C[C@H](NC(=O)CCC(F)(F)F)C(=O)N[C@@H]1C(=O)N(CCO)c2ncccc2-c2ccccc21` has an inhibition of -21 ± 6% (prp N63Q; enzyme activity, inhibitor; 10 µM, prp 21.4 nM, added: FITC peptide substrate 0.5 µM).
For `CNCCCC12CCC(c3ccccc31)c1ccccc12`, the inhibition was 2.79% (Potassium/sodium hyperpolarization-activated cyclic nucleotide-gated channel 1 (Homo sapiens, UniProt O60741); ion current; 10 µM).
For `Cc1c(-c2ccnn2C)cc(C(=O)NCc2ccc(S(C)(=O)=O)cn2)c(=O)n1-c1cccc(C(F)(F)F)c1`, the inhibition was 34.5 ± 6.3% (prp N63Q; enzyme activity, inhibitor; 10 µM, prp 21.4 nM, added: FITC peptide substrate 0.5 µM).
`O=C(Nc1ccc2c(c1)B(O)OC2)OCc1ccccc1` has an inhibition of at most 10% (F2; enzyme activity; 50 µM, added: substrate 50 µM).
`CC(C)c1nc(CN(C)C(=O)N[C@H](C(=O)N[C@@H](Cc2ccccc2)C[C@H](O)[C@H](Cc2ccccc2)NC(=O)OCc2cncs2)C(C)C)cs1` gave an inhibition of -17.1 ± 19.9% (prp N63Q; enzyme activity, inhibitor; 10 µM, prp 21.4 nM, added: FITC peptide substrate 0.5 µM).
